Measured values collected from several papers.
Lines come from different studies, so protocols differ. ± gives the spread as reported.

SMILES	organism	assay	system	setting	endpoint	result
CC(C)(C)O[C@@H]1C[C@@H](C(=O)N[C@H](Cc2ccccc2)C(=O)C(=O)NCc2ccc(Cl)cn2)N(C(=O)[C@@H](NC(=O)C2CCC(F)(F)CC2)C2CCCCC2)C1	SARS-CoV-2	viral replication	wild type	–	EC50	19800 ± 25200 nM
CC[C@H](C)[C@H](NC(=O)[C@H](C)NC(=O)[C@H](CCC(=O)O)NC(=O)[C@H](CCC(=O)O)NC(=O)[C@H](CC(C)C)NC(=O)[C@H](CCCCN)NC(=O)[C@H](CCCCN)NC(=O)[C@H](CCSC)NC(=O)[C@H](CCC(=O)O)NC(=O)[C@H](Cc1ccc(O)cc1)NC(=O)[C@H](CCC(=O)O)NC(=O)[C@H](CC(C)C)NC(=O)[C@H](CC(=O)O)NC(=O)[C@H](CC(C)C)NC(=O)[C@H](Cc1ccccc1)NC(=O)[C@H](Cc1ccc(O)cc1)NC(=O)[C@@H](NC(=O)[C@H](CC(N)=O)NC(=O)[C@@H](NC(=O)[C@H](CCC(N)=O)NC(=O)[C@H](CC(=O)O)NC(=O)[C@H](CC(C)C)NC(=O)[C@@H](N)CO)[C@@H](C)CC)C(C)C)C(=O)N[C@@H](CCCCN)C(=O)N[C@@H](CCCCN)C(=O)N[C@@H](CC(C)C)C(=O)N[C@@H](CCC(=O)O)C(=O)N[C@@H](CCC(=O)O)C(=O)N[C@@H](C)C(=O)N[C@@H](Cc1ccc(O)cc1)C(=O)N[C@H](C(=O)N[C@@H](CC(=O)O)C(=O)N[C@@H](CC(C)C)C(=O)N[C@@H](CCCCN)C(=O)N[C@@H](CCC(=O)O)C(=O)N[C@@H](CC(C)C)C(=O)O)[C@@H](C)CC	SARS-CoV-2 EG.5.1 pseudovirus	pseudovirus infection, inhibitor, luciferase	Caco-2	24 h, dual mutations	IC50	159 nM
CC[C@H](C)[C@@H]1NC(=O)[C@H](Cc2c[nH]cn2)NC(=O)[C@H](Cc2ccc(O)cc2)NC(=O)[C@H](Cc2ccc(O)cc2)NC(=O)[C@H](C(C)C)NC(=O)[C@H](Cc2c[nH]cn2)NC(=O)[C@H](CCCCN)NC(=O)[C@H]([C@@H](C)O)NC(=O)[C@H](Cc2ccc(O)cc2)NC(=O)CSC[C@@H](C(N)=O)NC(=O)[C@H](Cc2ccc(O)cc2)NC(=O)[C@H](C(C)C)NC(=O)[C@H](CC(C)C)NC(=O)[C@H](Cc2ccc(O)cc2)NC(=O)[C@H]([C@@H](C)CC)NC(=O)[C@H]([C@@H](C)O)NC1=O	SARS-CoV-2	viral replication	HEK293-ACE2-TMPRSS2	–	EC50	33100 nM
N#Cc1ccccc1C[C@@H](N)C(=O)N[C@H](Cc1ccc(Cl)cc1Cl)C(=O)N[C@H](CC(=O)NCCCCN1CCOCC1)Cc1ccc(F)cc1	SARS-CoV-2	viral replication	USA-WA1/2020	–	EC50	1400 nM
O=C(NC1CCN(c2ncnc3[nH]cnc23)CC1)c1cccc(NS(=O)(=O)c2ccc([N+](=O)[O-])cc2)c1	SARS-CoV-2	viral replication	Wuhan-Hu-1	–	EC50	1030 nM
Cc1cncc(C(=O)N2CCN(C3c4ccccc4CCc4ccccc43)CC2)c1	SARS-CoV-2	viral replication	USA-WA1/2020	–	EC50	360 nM
O=C(Nc1ccc(F)cc1)C1C(=O)N(O)C(=O)c2cc([N+](=O)[O-])ccc21 (stereo not shown)	SARS-CoV-2	viral replication	VeroE6-TMPRSS2	–	EC50	> 50000 nM
CC[C@H](C)[C@H](NC(=O)[C@H](C)NC(=O)[C@H](CCC(=O)O)NC(=O)[C@H](CCC(=O)O)NC(=O)[C@H](CC(C)C)NC(=O)[C@H](CCCCN)NC(=O)[C@H](CCCCN)NC(=O)[C@H](CCSC)NC(=O)[C@H](CCC(=O)O)NC(=O)[C@H](Cc1ccc(O)cc1)NC(=O)[C@H](CCC(=O)O)NC(=O)[C@H](CC(C)C)NC(=O)[C@H](CC(=O)O)NC(=O)[C@H](CC(C)C)NC(=O)[C@H](Cc1ccccc1)NC(=O)[C@H](Cc1ccc(O)cc1)NC(=O)[C@@H](NC(=O)[C@H](CC(N)=O)NC(=O)[C@@H](NC(=O)[C@H](CCC(N)=O)NC(=O)[C@H](CC(=O)O)NC(=O)[C@H](CC(C)C)NC(=O)[C@@H](N)CO)[C@@H](C)CC)C(C)C)C(=O)N[C@@H](CCCCN)C(=O)N[C@@H](CCCCN)C(=O)N[C@@H](CC(C)C)C(=O)N[C@@H](CCC(=O)O)C(=O)N[C@@H](CCC(=O)O)C(=O)N[C@H](C(=O)N[C@@H](Cc1ccc(O)cc1)C(=O)N[C@H](C(=O)N[C@@H](CC(=O)O)C(=O)N[C@@H](CC(C)C)C(=O)N[C@@H](CCCCN)C(=O)N[C@@H](CCC(=O)O)C(=O)N[C@@H](CC(C)C)C(=O)O)[C@@H](C)CC)[C@@H](C)O	SARS-CoV-2 Delta pseudovirus	pseudovirus infection, inhibitor, luciferase	Caco-2	24 h, dual mutations	IC50	1630 nM
Cc1ccc(S(=O)(=O)Nc2cccc(C(=O)NC3CCN(c4ncnc5[nH]cnc45)CC3)c2)cc1Cl	SARS-CoV-2	viral replication	Wuhan-Hu-1	–	EC50	2320 nM
O=C(O)C(O)=CC(=O)C1(Cc2ccc(Cl)cc2)CCN(C(=O)C=Cc2ccccc2)CC1	SARS-CoV-2	viral replication	VeroE6-TMPRSS2	–	EC50	> 50000 nM
N#Cc1ccccc1C[C@@H](N)C(=O)N[C@H](Cc1ccc(Cl)cc1Cl)C(=O)N[C@H](CC(=O)NCCCCC(=O)O)Cc1ccc(F)cc1	SARS-CoV-2	viral replication	USA-WA1/2020	–	EC50	> 10000 nM
O=C(NC1CCN(c2ncnc3[nH]cnc23)CC1)c1cccc(NS(=O)(=O)c2ccc(Cl)cc2)c1	SARS-CoV-2	viral replication	Wuhan-Hu-1	–	EC50	1370 nM
CC(=O)NCCCCNC(=O)C[C@H](Cc1ccc(F)cc1)NC(=O)[C@@H](Cc1ccc(Cl)cc1Cl)NC(=O)[C@H](N)Cc1ccccc1C#N	SARS-CoV-2	viral replication	USA-WA1/2020	–	EC50	5500 nM
O=C(O)C(O)=CC(=O)c1ccc(O)c(O)c1	SARS-CoV-2	viral replication	VeroE6-TMPRSS2	–	EC50	> 50000 nM
N#Cc1ccccc1C[C@@H](N)C(=O)N[C@H](Cc1ccc(Cl)cc1Cl)C(=O)N[C@H](CC(=O)NCCc1c[nH]cn1)Cc1ccc(F)cc1	SARS-CoV-2	viral replication	USA-WA1/2020	–	EC50	3100 nM
O=C(NCc1ccccc1)C1C(=O)N(O)C(=O)c2cc([N+](=O)[O-])ccc21 (stereo not shown)	SARS-CoV-2	viral replication	VeroE6-TMPRSS2	–	EC50	> 50000 nM

Some of these lines once more:
SMILES	organism	assay	system	setting	endpoint	result
N#Cc1ccccc1C[C@@H](N)C(=O)N[C@H](Cc1ccc(Cl)cc1Cl)C(=O)N[C@H](CC(=O)NCCCCC(=O)O)Cc1ccc(F)cc1	SARS-CoV-2	viral replication	USA-WA1/2020	–	EC50	> 10000 nM
